Experimental data from different studies.
“And” joins repeats or separate records; there may be more than shown.
Target: Tyrosine-protein kinase SYK (SYK, Homo sapiens, UniProt P43405)

SMILES = C=CC(=O)N1Cc2nc(-c3cc(-c4cc(Cl)cnc4Cl)c(F)cc3F)n(-c3ccncn3)c2C1; test = cell-free assay, inhibitor; conditions = 1 µM; quantity = inhibition; result = 10.7%
SMILES = Cc1cccc(-c2ccc3nc(NC(=O)C4CCCO4)nn3c2)c1 (centres unmarked); test = enzyme activity, Dundee kinase panel; conditions = 10 µM; quantity = remaining activity; result = 94%
SMILES = O=C(Cc1ccc(OCc2ccccc2)cc1)NC1(C(=O)O)CCN(C(=O)c2ccc(-c3cccc(Cl)c3)cc2)CC1; test = enzyme activity, inhibitor; conditions = 10 µM; quantity = activity vs control; result = 59%
SMILES = C=CC(=O)N1CCCC(n2c(=O)c3ncccc3n(Cc3ccc(Oc4ccccc4)cc3)c2=O)C1 (centres unmarked); test = cell-free assay, competition with immobilised ligand; conditions = 1 µM; quantity = remaining binding; result = 75%
SMILES = CCn1cc(C(=O)O)c(=O)c2c(N)c(F)c(NC3CCCCC3)cc21; test = kinase activity; conditions = 0.1 µM, together with: ATP at Km; quantity = inhibition; result = 14.3%
SMILES = O=c1c(-c2ccc(Cl)c(CN3CCOCC3)c2)coc2cc(O)ccc12; test = enzyme activity, inhibitor; conditions = 1 µM; quantity = remaining activity; result = 95%
SMILES = COc1ccc(O)cc1-c1c[nH]c2ncc(-c3cncc(C(=O)N(C)C)c3)cc12; test = binding, competition with immobilised ligand; conditions = 0.2 µM; quantity = inhibition; result = 2.65%
SMILES = NC(=O)C[C@H]1CCc2sc3ncnc(O[C@H]4CC[C@H](N5CCOCC5)CC4)c3c21; test = enzyme activity, inhibitor; conditions = 10 µM; quantity = inhibition; result = 6%
SMILES = CNC1C[S+]2CC[S+]3CC[S+](C1)[Ru-4]321([N]=C=S)[n]2c3ccc(OC)cc3c3c4c(c5cc(F)c[n+]1c5c32)C(=O)NC4=O (centres unmarked); test = KinomeScan; conditions = 0.1 µM; scale = relative to: untreated; quantity = remaining binding; result = 94%
SMILES = Cc1ccc(C)c(-c2ccc3nc(NC(=O)C4CCCCC4)nn3c2)c1; test = enzyme activity, Dundee kinase panel; conditions = 10 µM; quantity = remaining activity; result = 87%
SMILES = COc1cc(Nc2nccc(-c3cnn4nc(OC)ccc34)n2)cc(C(F)(F)F)c1; test = binding, competition with immobilised ligand; conditions = 1 µM; quantity = remaining binding; result = 89%
SMILES = C=CC(=O)Nc1cccc(-c2cnc3[nH]cc(C(=O)NC(C)(C)C)c3n2)c1; test = enzyme activity, inhibitor; conditions = 0.1 µM; quantity = inhibition; result = 78%
SMILES = CN1CC[C@@H](COc2cnc(C#N)cc2-c2ccn3nc(NC(=O)C4CC4)cc3c2)C1; test = enzyme activity, inhibitor; conditions = 1 µM; quantity = inhibition; result = -5%
SMILES = COc1c(OCCCN2CCOCC2)ccc2c1N=C(NC(=O)c1cnc(N)nc1)N1CCN=C21; test = kinase activity, inhibitor; conditions = 1 µM; scale = relative to: untreated control; quantity = remaining activity; result = 95%
SMILES = O=C(Nc1ccc(Oc2ncnc3[nH]cc(-c4ccccc4)c23)c(F)c1)c1c2n(n(-c3cc(F)ccc3F)c1=O)CCCC2; test = enzyme activity, inhibitor; conditions = 0.5 µM; quantity = inhibition; result = 27%
SMILES = Cc1cccc(O[C@H]2CCC[C@@H](C(C)CNCc3ccncc3)C2)c1 (relative stereo); test = kinase activity, kinome panel screening; conditions = 1 µM; quantity = inhibition; result = 2%
SMILES = COCC12C(=O)NC3C4(C(OC)CC1O)C1CC5(O)C(OC)C(O)C(OC(C)=O)(C1C5OC(=O)c1ccccc1)C3(O)C(OC)C24 (centres unmarked); test = kinase activity, inhibitor, ProQinase kinase profiling; conditions = 25 µM; scale = relative to: control; quantity = remaining activity; result = 97% and 119%
SMILES = Nc1ncc2c(n1)-c1c([nH]c3ccc(C4=CCOCC4)cc13)CCC2; test = binding, competition with immobilised ligand; conditions = 1 µM; quantity = remaining binding; result = 100%
SMILES = Cc1cnc2nc1Nc1cccc(c1)COC/C=C/COCc1cc(ccc1OCCN1CCOCC1)N2; test = cell-free assay; conditions = 0.1 µM; quantity = remaining signal; result = 83%
SMILES = Nc1nc(Nc2ccccc2)sc1C(=O)c1ccccc1; test = enzyme activity, inhibitor; conditions = 10 µM; quantity = remaining activity; result = 45%

Repeated from above:
SMILES = O=c1c(-c2ccc(Cl)c(CN3CCOCC3)c2)coc2cc(O)ccc12; test = enzyme activity, inhibitor; conditions = 1 µM; quantity = remaining activity; result = 95%
SMILES = COc1cc(Nc2nccc(-c3cnn4nc(OC)ccc34)n2)cc(C(F)(F)F)c1; test = binding, competition with immobilised ligand; conditions = 1 µM; quantity = remaining binding; result = 89%
